Measured values collected from several papers.
A part holds a random share of what one study measured.

Set 1
Target: Interferon regulatory factor 5, full length, phosphomimetic (IRF5, Homo sapiens, UniProt Q13568-2, residues 1-514, S451D/S453D/S456D/S462D)
Technique: protein-binding microarray
Form: double-stranded DNA, one strand shown
Medium: in vitro
Concentration: 940 nM top
Setting: 60-bp whole probe
With: salmon DNA 0.4 mg/ml
Baseline: random background probes
Direction: higher = stronger binding
Shared flanks, not repeated: GCCTAGCAC … GTCTTGATTCGCTTGACGCTGCTG
`TTAGGTCTCGGTATAGGTTAGTGCTAG`: “fitted relative affinity” 4.87 z-score.
Under “fitted relative affinity”, `AGAGCTGTCCTTTGCAACAGGTGCTAG` is recorded as -0.686 z-score.
For `GACTGACTGCTACTGCTGACGTGCTAG`, “fitted relative affinity” read -0.636 z-score.
`TTAGGTGTCGGTATCGGTTAGTGCTAG`: “fitted relative affinity” 4.38 z-score.
`TCATAAATATCTTTGTTACTGTGCTAG` — result for “fitted relative affinity”: 0.133 z-score.
`GTCCCTATCTCCTCACAGACCGTGCTA`: “fitted relative affinity” 1.16 z-score.
For `GACGGACTGGGTATCGGTACGTGCTAG`, “fitted relative affinity” read 3.18 z-score.
Under “fitted relative affinity”, `TCATCTAGGTTTTCTGGAACTGTGCTA` is recorded as 0.0933 z-score.
Under “fitted relative affinity”, `ATAGGACTGGACTTTCGGTTAGTGCTA` is recorded as 2.72 z-score.
`TTTGACATCTTCATCAACTAGTGCTAG` — result for “fitted relative affinity”: -0.033 z-score.
`TGGGCTACCGGGTCCCTCTTGTGCTAG`: “fitted relative affinity” -0.744 z-score.
Under “fitted relative affinity”, `TTATATTTCAGACTGGATTAGTGCTAG` is recorded as 0.309 z-score.
Under “fitted relative affinity”, `TTAGATATCGAGTTTCGATTAGTGCTA` is recorded as 6.22 z-score.
For `TCATATGTAATCATTCACACTGTGCTA`, “fitted relative affinity” read 0.368 z-score.
For `TCAATTCCCTTTCTCAAACTGTGCTAG`, “fitted relative affinity” read 1.44 z-score.
`GAGGGTCTCGGTATCGGGACGTGCTAG`: “fitted relative affinity” 3.4 z-score.
For `TGAGGTTTCGGGACTGGGTTAGTGCTA`, “fitted relative affinity” read 5.06 z-score.
For `GACGGAATCGGGTTTCGGGACGTGCTA`, “fitted relative affinity” read 2.48 z-score.
Under “fitted relative affinity”, `TTAGGTTTCCTTATCATTTAGTGCTAG` is recorded as 1.84 z-score.
Under “fitted relative affinity”, `GATGGTATCGGTATCGGGACGTGCTAG` is recorded as 9.84 z-score.
`TTAGAGTTCAGTCTCGATTAGTGCTAG` — result for “fitted relative affinity”: 3.31 z-score.
For `TCCAGGCTGGTCTCTAACTCAGTGCTA`, “fitted relative affinity” read -0.0332 z-score.
Under “fitted relative affinity”, `TTAGGTTTCCTACTACTTTAGTGCTAG` is recorded as 1.03 z-score.
`GACAGACTGGGTTTCGGGACGTGCTAG` — result for “fitted relative affinity”: 3.05 z-score.
Under “fitted relative affinity”, `GACAGTTCCCTTTTCCTGACGTGCTAG` is recorded as 1.4 z-score.

Set 2
Target: Histone acetyltransferase KAT6A, winged helix 2, GST fusion (KAT6A, Homo sapiens, UniProt Q92794, residues 85-181)
Technique: protein binding microarray
Form: double-stranded DNA, one strand shown
Medium: in vitro
Concentration: not given
Setting: 8-mer, flanks averaged, mean of 2 arrays, mostly near background
Baseline: not given
Direction: higher = stronger binding
Construct (chain): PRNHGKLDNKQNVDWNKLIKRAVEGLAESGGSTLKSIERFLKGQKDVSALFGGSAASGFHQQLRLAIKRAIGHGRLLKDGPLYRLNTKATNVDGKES
`AGACTGTA` gave an E-score of -0.141.
`GAACCGCA` gave an E-score of 0.248.
The E-score of `CGACCCTA` is reported as 0.159.
The E-score of `AACTATTC` is reported as -0.138.
The E-score of `AGTGCGTG` is reported as 0.0323.
For `AAACTCAT`, the E-score was 0.147.
For `CTCTGGAA`, the E-score was -0.0304.
With `GGGATTAA` the E-score was 0.0756.
The E-score of `ACGGCTCT` is reported as -0.0422.
`ATATATGG` has an E-score of 0.0524.
`AACACTGG` gave an E-score of -0.179.
With `ATGATCTA` the E-score was 0.145.
`GCGCCTAC` has an E-score of 0.0512.
For `AACGAGCA`, the E-score was -0.0144.
With `AATATGGC` the E-score was -0.114.
For `CTTAACCC`, the E-score was 0.0471.
With `AGTCCGGC` the E-score was 0.0974.
`CGTTCAGC` gave an E-score of -0.0494.
`AATAGTGT` gave an E-score of -0.0223.
For `AATAATGA`, the E-score was -0.0607.
`AAATTACA` gave an E-score of 0.00498.

Set 3
Target: Sal-like protein 4, full length isoform B (SALL4, Homo sapiens, UniProt Q9UJQ4-2, residues 1-616)
Technique: universal PBM
Form: double-stranded DNA, one strand shown
Medium: in vitro
Concentration: not given
Setting: 8-mer, flanks averaged, mean of replicates
Direction: higher = stronger binding
`CCGCTGAA` gave an E-score of -0.0869.
With `AGTAATGG` the E-score was 0.134.
`AAAAGGAC` has an E-score of 0.0382.
With `GTGCGATA` the E-score was 0.0157.
`CCGCCTAG` gave an E-score of -0.166.
For `ACGCCTGG`, the E-score was -0.277.
For `CGTCTTAG`, the E-score was -0.0306.
With `CAGCGCTA` the E-score was -0.113.
For `CCACCACG`, the E-score was -0.0645.
`CCATATGG` has an E-score of -0.0324.
For `ACAAAGCA`, the E-score was 0.2.
For `CCGTAAAA`, the E-score was 0.153.
`ATTCGAAT` gave an E-score of 0.283.
For `ATTAATCG`, the E-score was 0.252.
`ACTAGACA` gave an E-score of 0.181.
`ACTCCCCG` gave an E-score of -0.236.

Set 4
Target: Phosphate system positive regulatory protein PHO4, full length, GST-tagged (PHO4, Saccharomyces cerevisiae, UniProt P07270, residues 1-312)
Technique: competition protein-binding microarray
Form: double-stranded DNA, one strand shown
Medium: in vitro
Concentration: 2 µM
Setting: whole 60-bp probe, lowest competitor level
With: Cbf1 competitor, 0.05 µM
Direction: higher = stronger binding
Shared flanks, not repeated: … GTCTTGATTCGCTTGACGCTGCTG
Target sequence (chain): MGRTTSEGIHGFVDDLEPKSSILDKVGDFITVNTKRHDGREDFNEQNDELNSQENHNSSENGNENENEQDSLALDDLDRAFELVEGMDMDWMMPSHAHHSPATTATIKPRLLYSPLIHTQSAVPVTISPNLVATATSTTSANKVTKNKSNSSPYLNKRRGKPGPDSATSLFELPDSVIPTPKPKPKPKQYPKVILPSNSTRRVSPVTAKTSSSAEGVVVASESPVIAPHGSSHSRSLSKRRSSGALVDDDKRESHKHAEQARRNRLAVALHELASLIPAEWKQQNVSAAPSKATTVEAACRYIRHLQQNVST
The fluorescence intensity of `CATACCCAACCTTGCCACGTGGGTGAAGATATTTGT` is reported as 18000 a.u.
`ATCTTTGAGTGTCGGCACGTGTTGGGTTACGAATTC` gave a fluorescence intensity of 17200 a.u.
The fluorescence intensity of `CTTCTGTAAATTTGAGCCGTGGGTGGACGCGCCCCG` is reported as 4750 a.u.
`TCTTCTAGGAATTAGCACGTGTTTTGGTAACGCACC` gave a fluorescence intensity of 19400 a.u.
With `AGAGAGGCTTTGAAACATGTGATTGCTGTTCGCGAT` the fluorescence intensity was 9410 a.u.
For `TTGTCTGTGCATTGGCATGTGCAAGCATTCGATGAA`, the fluorescence intensity was 8380 a.u.
With `TGCGCAACAACTTGATGAGTGGGTGTATGTCTAGAA` the fluorescence intensity was 5050 a.u.
`AAGATATTGTTCGACCATGTGTTAAATGCCAGTAAT` has a fluorescence intensity of 9790 a.u.
With `CATACCCAACCTTTTCACGTGCGGTAAGATATTTGT` the fluorescence intensity was 14200 a.u.
For `TGCGCAACAACTTTTCACGTGCCTTTATGTCTAGAA`, the fluorescence intensity was 17200 a.u.
`CGGGGTTAAGTTTGGCCAGTGGGTGGCTTGCAGCAG` has a fluorescence intensity of 4480 a.u.
For `AATTTAACGTCGTATCACCTGCCATAACCGAGCAAG`, the fluorescence intensity was 4770 a.u.
The fluorescence intensity of `CTACTGGAGATGCAGGTCGTGATGGACTTTTAGCTT` is reported as 5720 a.u.
`ATTTTCTTGGTCGACCACGTGCCGACCTTAAAGCAG` gave a fluorescence intensity of 19000 a.u.
`CCGATGATATGATTGCACGTCCACTGAACAGGTTAA` has a fluorescence intensity of 5470 a.u.
The fluorescence intensity of `TTTCATCACTATTTGCACGCTCTTTCCAAAGCTCCT` is reported as 7700 a.u.
For `CGAAATAAAAGCCATCACGTGGAGTGTAGCACCGCC`, the fluorescence intensity was 14600 a.u.
The fluorescence intensity of `CTTCTGTAAATTTGAAGTGTGGGTGGACGCGCCCCG` is reported as 4910 a.u.
`TCCTCTCTGGACGGCATCGTGTCGGACGACGCCGCA` has a fluorescence intensity of 7160 a.u.
With `ATCGCTTTGCATCCTTACGTGCGGAAGATGGCATCG` the fluorescence intensity was 4920 a.u.
With `AAATTACTAAGTTGTGGGGTGGGTGACGCCGTATGA` the fluorescence intensity was 6050 a.u.
`CGTCCTAGTGATTTTCACGTGATCTCCATGAGGAAG` gave a fluorescence intensity of 12700 a.u.
`ACCGTAAAATGGCCTCACGTGGAACGCTCCCGTCTA` has a fluorescence intensity of 14100 a.u.

Some of these lines once more (set 1):
`TGGGCTACCGGGTCCCTCTTGTGCTAG`: “fitted relative affinity” -0.744 z-score.
Under “fitted relative affinity”, `TTATATTTCAGACTGGATTAGTGCTAG` is recorded as 0.309 z-score.
Under “fitted relative affinity”, `TTAGATATCGAGTTTCGATTAGTGCTA` is recorded as 6.22 z-score.
For `TCATATGTAATCATTCACACTGTGCTA`, “fitted relative affinity” read 0.368 z-score.
For `TCAATTCCCTTTCTCAAACTGTGCTAG`, “fitted relative affinity” read 1.44 z-score.
`GAGGGTCTCGGTATCGGGACGTGCTAG`: “fitted relative affinity” 3.4 z-score.
For `TGAGGTTTCGGGACTGGGTTAGTGCTA`, “fitted relative affinity” read 5.06 z-score.
For `GACGGAATCGGGTTTCGGGACGTGCTA`, “fitted relative affinity” read 2.48 z-score.
Under “fitted relative affinity”, `TTAGGTTTCCTTATCATTTAGTGCTAG` is recorded as 1.84 z-score.
Under “fitted relative affinity”, `GATGGTATCGGTATCGGGACGTGCTAG` is recorded as 9.84 z-score.
